Measured values collected from several papers.
Numbered parts are unrelated; each lists some results of a single study. Positions count from the first letter of the parent shown.

Sample 1
Target: Histone acetyltransferase KAT6A, both winged helices, GST fusion (KAT6A, Homo sapiens, UniProt Q92794, residues 1-181)
Method: protein binding microarray
Form: double-stranded DNA, one strand shown
Matrix: in vitro
Concentration: not given
Setting: 8-mer, flanks averaged, mean of 2 arrays, mostly near background
Relative to: not given
Reading: higher = stronger binding
Quantity: E-score
Target sequence (chain): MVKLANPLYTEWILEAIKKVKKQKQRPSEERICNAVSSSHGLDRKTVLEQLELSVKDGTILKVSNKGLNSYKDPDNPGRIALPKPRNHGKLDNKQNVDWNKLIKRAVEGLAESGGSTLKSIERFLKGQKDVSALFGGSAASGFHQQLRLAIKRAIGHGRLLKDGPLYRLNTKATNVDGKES
Oligonucleotide = AGATGCTC; result = -0.0781
Oligonucleotide = AATGACGG; result = 0.249
Oligonucleotide = CAGACCTA; result = -0.0937
Oligonucleotide = CATGGAGA; result = -0.2
Oligonucleotide = CGCTGCTC; result = 0.115
Oligonucleotide = AGCTAATA; result = -0.0991
Oligonucleotide = AATCGACC; result = 0.0331
Oligonucleotide = CATAGAAA; result = -0.0557
Oligonucleotide = GGAACAAC; result = 0.123
Oligonucleotide = ACACACAT; result = -0.189
Oligonucleotide = AATTCACA; result = -0.00247
Oligonucleotide = CTATTCTC; result = -0.0876
Oligonucleotide = AGCGAAAC; result = 0.146
Oligonucleotide = CGCAAGCG; result = 0.255
Oligonucleotide = AAATGCTA; result = -0.117
Oligonucleotide = GGTAGGAC; result = -0.0396
Oligonucleotide = AGTCACGG; result = 0.221
Oligonucleotide = TCTGAAAA; result = -0.163
Oligonucleotide = TTCGCGAA; result = 0.205
Oligonucleotide = GCCGCGCC; result = 0.354
Oligonucleotide = TAACGCTA; result = -0.00989
Oligonucleotide = AGCCACAG; result = -0.143

Sample 2
Target: PABPC1L2, full length, GST fusion (mouse, UniProt A0ABA7IW68)
Method: RNAcompete
Form: RNA
Matrix: in vitro
Concentration: 20 nM
Setting: 7-mer, probes averaged, single round
Relative to: mean of 7-mers
Reading: higher = stronger binding
Quantity: 7-mer Z-score
Construct (chain): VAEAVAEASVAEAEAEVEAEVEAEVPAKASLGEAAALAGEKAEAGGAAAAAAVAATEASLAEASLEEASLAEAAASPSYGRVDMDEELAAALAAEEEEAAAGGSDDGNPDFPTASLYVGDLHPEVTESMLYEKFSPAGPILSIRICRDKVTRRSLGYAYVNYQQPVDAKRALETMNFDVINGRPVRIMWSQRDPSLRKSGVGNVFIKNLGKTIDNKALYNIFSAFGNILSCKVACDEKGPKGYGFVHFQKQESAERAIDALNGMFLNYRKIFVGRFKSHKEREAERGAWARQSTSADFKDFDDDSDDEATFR
Oligonucleotide = CAGCCCG; result = -0.365
Oligonucleotide = CAGAGAC; result = 0.236
Oligonucleotide = GCGCGUC; result = -0.237
Oligonucleotide = CCCGACC; result = -0.237
Oligonucleotide = GCAACGA; result = 0.153
Oligonucleotide = AUGGCGU; result = -0.0428
Oligonucleotide = CCAUGUG; result = -0.219
Oligonucleotide = UCUGAUA; result = -0.211
Oligonucleotide = UUUCUCA; result = -0.487
Oligonucleotide = CGUCUAC; result = -0.313
Oligonucleotide = GGUUAAC; result = -0.112
Oligonucleotide = CGUCAUU; result = -0.307
Oligonucleotide = GGUACCU; result = -0.336
Oligonucleotide = UGAAGUC; result = -0.199
Oligonucleotide = GUGACGC; result = -0.104
Oligonucleotide = CGGCUCG; result = -0.338

Sample 3
Target: RNA binding protein fox-1 homolog 2, RRM domain, GST-SBP tag (RBFOX2, Homo sapiens, UniProt O43251-10, residues 100-194)
Method: RNA Bind-n-Seq
Form: RNA
Matrix: in vitro
Concentration: 365 nM
Setting: natural RNA segment, single round, ends assumed
Relative to: no-protein control
Reading: higher = stronger binding
Quantity: RBNS enrichment (R)
Shared flanks, not repeated: GGGAGUUCUACAGUCCGACGAUC … UGGAAUUCUCGGGUGCCAA
Construct (chain): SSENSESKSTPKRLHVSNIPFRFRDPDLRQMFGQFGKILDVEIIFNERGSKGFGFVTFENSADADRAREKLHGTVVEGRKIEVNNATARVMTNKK
Oligonucleotide = UGCGCCAUUGCUGCACGCGGGUGGCCCUCUGCCAGGCCGUGGACUGGCUCAUGCCUCAGCCCGCCUUCAGGCUGCCCGCCGCCCCUCCACCCAUCCAGUGGACUCUGGGG; result = 1.13
Oligonucleotide = CCAUUGUUGCAUAGAGAGUGUGCACCGCUGCUAUCUUGCCAGAUCCACACUGGUCCUCCCGAAAGCCAGGUUCAUACACAGCAACUUUUUAAUUAUUCUAACAGUUACCC; result = 0.679
Oligonucleotide = GCAUAGGAGUCCGUCUGUCUUUGGACUGUCUCCUCUGCUGUUGUUCCUGCUCUCUCCGUUUCUGUCUAGAUGUCAGGAAAAGGUUUAAUGUUUAAUAUUUAAACAAAAUA; result = 0.214
Oligonucleotide = UUGGUCACCUCUUUACUGUAAAUACUAUUGAAAAAAGGAGCGUAGCAUUUGCAUAGCAGGGAUUGUGCCUGUAUCUACUGUGUCCAUUUUGUUUUUUCGGAUGUUUUCUG; result = 1.13
Oligonucleotide = CACUUGAUUUGCUAAGGCUGGAGACAGGCACCAUUGCCAUGGGGCUGGUCCUAGUCACUGGCCGAGGAUAAGCCCGUCCCUGUCCCACAUUCUAGCCCCACUAUGCGGGG; result = 0.293
Oligonucleotide = UGCUGCCAUUUGUAUUCAGCUGAAGAAGUCACUAUUGUGUAUAUACUCAAGGCUUCUUAUUUUUCUUCUUUUCUAAAUGCUCUUGGACAUUAUUGGGCUUGCAGAGUUCC; result = 0.535
Oligonucleotide = ACUCACAGGGGAUUCUCUGCAUUCAUCCCGGGUCUGUCCUCUCUGACUCUGCUACAUACAGGGUCCAUGUGGGCUGAUAACUAGUACCAGGGGCCUGCUGCAUGCUACGC; result = 13.2
Oligonucleotide = AUAAGAAUGUCAGCCUAGCCACAGAGUCUGAGAUUCUGAGUUCAGCCUAGCCACAGAGUCUAAGAUUCUGUAUCCUCUGACAUUUUGGAAAUGAUACACUACUGGCUUAA; result = 0.249
Oligonucleotide = CUCCGCACUGUGUGUACAGUAUUGGACAAAGGAUUUAUUCAUUUUGUUGCAUUAUUUUGAAUAUUGUCUUUUCAUUUUAAUAAAGUUAUAUUACUUAUUUAUGACACCGU; result = 1.23
Oligonucleotide = UUGUGCACAGGAAGAGCACCAGCCGCUGAGUCAGGAUCCUGUCAGUUCCAUGAGCUAUUCCUCUUUGGUUUGGCUUUUUGAUAUGAUUAAAAUUAUUUUUUAUUCCUUUU; result = 0.664
Oligonucleotide = AGAGUGCCCUUCAGGCUGUCAGGUCACGAGCUCCGAGCUGCCCUUAGUCCUUGUCAGCCUCACAGAGGUCUGCGCCCGACACUUCUGCCCUUUGAGACAAAAGAAACAGG; result = 0.162
Oligonucleotide = AAAUGGUUAAAUAUCAAAUGCUGCUGCUGCUGCCAAAAUUAUAUUAAUAGCGAGUUUCUGGCCCCUGGGCAAUUUUGUACCUUGUAAUUAUCCUAUGGUGAUGCUGUUUC; result = 0.757

Sample 4
Target: RING finger protein unkempt homolog, zinc fingers 1-6, GST-SBP tag (UNK, Homo sapiens, UniProt Q9C0B0, residues 30-357)
UniProt Q9C0B0, sequence (30-357, looked up): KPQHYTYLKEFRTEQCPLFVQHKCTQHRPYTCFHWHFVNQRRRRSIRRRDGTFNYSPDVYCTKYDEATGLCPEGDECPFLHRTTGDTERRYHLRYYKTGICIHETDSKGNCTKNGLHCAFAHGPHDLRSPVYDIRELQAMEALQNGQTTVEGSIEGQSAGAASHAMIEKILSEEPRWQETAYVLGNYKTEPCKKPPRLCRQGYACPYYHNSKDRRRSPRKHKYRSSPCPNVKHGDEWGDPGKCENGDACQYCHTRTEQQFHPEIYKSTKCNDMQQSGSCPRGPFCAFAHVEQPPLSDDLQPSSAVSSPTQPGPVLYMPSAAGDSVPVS
Method: RNA Bind-n-Seq
Form: RNA
Matrix: in vitro
Concentration: not given
Setting: RNA with constant flanks, human-mouse chimeric sites, ends assumed
Relative to: input RNA pool
Reading: higher = stronger binding
Quantity: bound/input enrichment
Shared flanks, not repeated: GGGAGUUCUACAGUCCGACGAUC … CAACAGAGGAUUGAGCAUCA
Oligonucleotide = ACACAAUAUGAGACCAACAGCAUGGACUUCAAAGUUGGGGCAGAUGGGACAGUCUUCGCCACUAGGGAGCUGCAGGUCCCCUCCGAGCAGGUGGCCUUCACGGUGACUGCAUGGGACAGC; result = 0.168 ratio
Oligonucleotide = GUACUGCAGCAGCAGGGAAAACUGCAGGAAGCUCUGAUGCAUUAUAAGGAGGCUAUUCGAAUCAGUCCUACAUUUGCUGAUGCUUAUUCUAAUAUGGGAAACACUCUAAAGGAGAUGCAG; result = 0.182 ratio
Oligonucleotide = UGUGCAUAUGAUGCUUGAGAUGGUUUUUGCAAAAGCAGAAAUCGCUGCAAGGUAAUCACAAUAGAUACAAGCGGUAUUUUAAACCUUUGAAAUAAAUGGAUGUAACUGUACCUUGGUACA; result = 0.27 ratio
Oligonucleotide = CUGGCACUCUAUCAGAUAUAUUAAUUUUUUAAUGUAGAUGUAAUUUUAAAAAUGAAUGGCUAGUUUACGUGAUAGAUUAGGGUUUUACUAUAUAUGUGUACAUAUGUAUAUAUAUAUAUA; result = 6.62 ratio
Oligonucleotide = UUUCUAUUGCAGCAAACGAUGCUAAGAAUUAAGGAUCCUAAGAAGUCCCUGGAUUUUUAUACGAGGGUUCUUGGACUGACCCUCCUGCAGAAGCUUGACUUCCCUGCUAUGAAGUUCUCG; result = 0.492 ratio
Oligonucleotide = ACCUCCCCCUCCCGCCUCACCCCACCCCCGCUUUUUGGAAAGUUUUUGGCGUUUCUUUUCCUUCCCCAUACAAAGUGAUUACAGUUUCCCCCGCAAGUGGGGCUUGAAGGGCUUGACGGA; result = 1.32 ratio
Oligonucleotide = CACAGAGGAGAUCUGCUGUUCCUCACGAAUUUCCGGGAGGACCCCAUCAGAGCUGGUGAAAUAGUUGUUUUUAAAGUUGAAGGAAGAGACAUUCCGAUAGUUCACAGAGUAAUCAAAGUU; result = 3.67 ratio
Oligonucleotide = UUUGUUUUUGUAACUUAUGUAAAAGGUGUUUCUCCCUUACUGUCAAAAAAUAUGCAUGUAUAGUAAUUAGGACUUCAUUCCUCCAUGUUUUCUUCCCUUAUCUUACUGUCAUUGUCCUUA; result = 1.01 ratio
Oligonucleotide = UUGAAAACAAACUGAUUUAAGUUUGAGUAUCACAAUGUUAGCUUUCUAAUUCCAUAAAAGUACUUGGUUUUUACAGUAACCCCACAUACAUCACCCCAGCGCCAUUUGUAAAGAGCAACU; result = 0.902 ratio
Oligonucleotide = GCGGCAGAAUCAUGGAGGACAUAAUGCAGCUCCCCAAAGCGCGCGUCAACGCCAGCAUGUUACCACAGUAUAUCGACCGGCCCGUGUGCUUCGUGGGGAGGCUGGAAAAGAUUCAUCCCA; result = 0.13 ratio
Oligonucleotide = CAGCUGCAGACAGAAAAGGAUGAGAAGGAGCUGUAUAAGGUACAUUUGAAGAAUACAGAAAUAGAAAAUACGAAGCUUAUGUCAGAGAUACAGACUUUAAAGAAUUUAGAUGGGAACAAA; result = 1.24 ratio

Further values, each from its own experiment
CCND3: CCND3, cyclin fold, Cln2 fusion (human)
P1: CDAN1 docking peptide (human); RGARSQLFPPTEA; partner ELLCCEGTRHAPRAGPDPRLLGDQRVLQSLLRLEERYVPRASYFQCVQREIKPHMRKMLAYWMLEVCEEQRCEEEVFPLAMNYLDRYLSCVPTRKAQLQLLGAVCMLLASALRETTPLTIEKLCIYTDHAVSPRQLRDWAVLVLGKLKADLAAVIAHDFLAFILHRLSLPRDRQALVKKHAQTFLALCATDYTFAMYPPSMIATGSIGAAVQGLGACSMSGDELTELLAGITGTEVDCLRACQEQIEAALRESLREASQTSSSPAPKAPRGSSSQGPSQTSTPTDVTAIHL
Substance = LLRRLQDVANDRG; target or system = Saccharomyces cerevisiae; test = binding, competitive growth deep sequencing; system = peptide, cyclin D3-Cln2 fusion strain; setting = concentration not given, peptide library 2; how to read = direction not given; quantity = growth enrichment score; result = 8.17
Substance = VLLKRLQDVVSERANH; target or system = Saccharomyces cerevisiae; test = binding, competitive growth deep sequencing; system = peptide, cyclin D3-Cln2 fusion strain; setting = concentration not given, tiling library, Cln2 subtracted; how to read = direction not given; quantity = growth enrichment score; result = 4.53
Substance = P1 P10A; target or system = CCND3; test = yeast growth competition, sequencing; system = yeast; setting = weak parent motif; how to read = relative to: not given, higher = stronger binding; quantity = normalised enrichment score; result = 0.199
Substance = P1 F8A; target or system = CCND3; test = yeast growth competition, sequencing; system = yeast; setting = weak parent motif; how to read = relative to: not given, higher = stronger binding; quantity = normalised enrichment score; result = 0.393

Repeated from above (sample 1):
Oligonucleotide = AAATGCTA; result = -0.117
Oligonucleotide = AGCGAAAC; result = 0.146
Oligonucleotide = AGTCACGG; result = 0.221
Oligonucleotide = CTATTCTC; result = -0.0876
Oligonucleotide = GGTAGGAC; result = -0.0396
Oligonucleotide = CGCTGCTC; result = 0.115
Oligonucleotide = CATAGAAA; result = -0.0557
Oligonucleotide = AGCCACAG; result = -0.143
Oligonucleotide = TTCGCGAA; result = 0.205
Oligonucleotide = TCTGAAAA; result = -0.163
